{"data": "Measurements pooled from the literature", "note": "Numbered parts are unrelated; each lists some results of a single study. Positions count from the first letter of the parent shown.", "UniProt Q969T4, sequence (whole entry, looked up)": "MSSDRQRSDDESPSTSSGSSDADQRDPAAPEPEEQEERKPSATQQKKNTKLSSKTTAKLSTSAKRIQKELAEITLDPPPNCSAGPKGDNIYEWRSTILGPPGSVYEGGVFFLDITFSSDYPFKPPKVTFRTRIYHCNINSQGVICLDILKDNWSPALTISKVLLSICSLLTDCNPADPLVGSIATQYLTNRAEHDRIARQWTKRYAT", "UniProt Q9C0C9, sequence (whole entry, looked up)": "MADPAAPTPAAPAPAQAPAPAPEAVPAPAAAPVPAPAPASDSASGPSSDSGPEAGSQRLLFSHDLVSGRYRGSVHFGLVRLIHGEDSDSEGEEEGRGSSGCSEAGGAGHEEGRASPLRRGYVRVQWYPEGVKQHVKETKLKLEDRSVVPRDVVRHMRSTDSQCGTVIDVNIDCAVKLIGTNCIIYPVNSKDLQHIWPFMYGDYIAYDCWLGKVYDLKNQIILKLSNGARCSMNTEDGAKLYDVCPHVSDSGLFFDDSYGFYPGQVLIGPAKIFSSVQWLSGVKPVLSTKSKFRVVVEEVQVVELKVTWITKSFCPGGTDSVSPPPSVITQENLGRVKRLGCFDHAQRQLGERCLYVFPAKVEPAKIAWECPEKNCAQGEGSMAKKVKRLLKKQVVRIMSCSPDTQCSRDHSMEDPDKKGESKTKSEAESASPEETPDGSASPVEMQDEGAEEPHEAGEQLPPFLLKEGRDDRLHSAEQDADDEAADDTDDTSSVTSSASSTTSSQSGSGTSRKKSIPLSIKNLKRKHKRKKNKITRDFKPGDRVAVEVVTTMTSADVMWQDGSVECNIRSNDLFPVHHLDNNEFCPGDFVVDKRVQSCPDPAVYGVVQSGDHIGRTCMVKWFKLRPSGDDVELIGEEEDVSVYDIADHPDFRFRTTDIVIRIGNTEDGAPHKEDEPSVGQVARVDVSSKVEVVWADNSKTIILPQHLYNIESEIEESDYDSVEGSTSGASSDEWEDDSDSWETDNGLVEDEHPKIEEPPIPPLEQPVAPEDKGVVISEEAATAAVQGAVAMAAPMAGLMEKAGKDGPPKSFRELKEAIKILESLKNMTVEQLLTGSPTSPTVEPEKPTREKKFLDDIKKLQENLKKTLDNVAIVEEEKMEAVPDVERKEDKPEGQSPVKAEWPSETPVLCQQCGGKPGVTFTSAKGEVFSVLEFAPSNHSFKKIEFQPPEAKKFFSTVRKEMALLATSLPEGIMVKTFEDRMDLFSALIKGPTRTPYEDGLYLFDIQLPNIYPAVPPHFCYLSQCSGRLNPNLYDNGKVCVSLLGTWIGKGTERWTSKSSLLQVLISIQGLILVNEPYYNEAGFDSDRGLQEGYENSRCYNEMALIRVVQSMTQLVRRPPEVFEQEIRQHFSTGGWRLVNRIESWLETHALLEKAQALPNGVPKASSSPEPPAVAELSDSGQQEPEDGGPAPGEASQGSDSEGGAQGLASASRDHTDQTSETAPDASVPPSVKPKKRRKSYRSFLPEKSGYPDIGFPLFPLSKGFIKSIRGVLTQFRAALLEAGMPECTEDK", "UniProt P51668, sequence (whole entry, looked up)": "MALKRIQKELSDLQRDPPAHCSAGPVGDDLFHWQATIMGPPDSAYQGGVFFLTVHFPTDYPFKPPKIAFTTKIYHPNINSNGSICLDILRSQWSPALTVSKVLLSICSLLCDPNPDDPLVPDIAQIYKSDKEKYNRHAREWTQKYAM", "UniProt P61081, sequence (whole entry, looked up)": "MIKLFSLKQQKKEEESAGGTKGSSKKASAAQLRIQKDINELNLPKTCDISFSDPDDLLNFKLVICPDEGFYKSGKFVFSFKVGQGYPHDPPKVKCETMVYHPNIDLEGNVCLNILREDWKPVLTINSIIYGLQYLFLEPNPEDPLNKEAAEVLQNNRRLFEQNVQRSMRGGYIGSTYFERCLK", "UniProt Q9H832, sequence (whole entry, looked up)": "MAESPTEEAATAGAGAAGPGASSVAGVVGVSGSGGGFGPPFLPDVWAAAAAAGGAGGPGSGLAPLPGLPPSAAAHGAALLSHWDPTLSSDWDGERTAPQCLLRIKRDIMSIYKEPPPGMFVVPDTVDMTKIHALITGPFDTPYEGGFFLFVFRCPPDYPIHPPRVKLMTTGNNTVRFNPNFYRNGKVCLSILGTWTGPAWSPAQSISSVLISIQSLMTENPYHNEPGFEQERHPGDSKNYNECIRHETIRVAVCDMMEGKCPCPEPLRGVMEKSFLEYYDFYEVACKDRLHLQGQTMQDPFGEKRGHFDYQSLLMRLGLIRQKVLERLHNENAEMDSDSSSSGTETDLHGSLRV"}
{"data": "Series 1", "Molecule": "B1 (RNF181 RING domain)", "technique": "yeast two-hybrid", "sample": "yeast", "setting": "mostly zero background", "baseline": "not given", "direction": "higher = stronger interaction", "B1": "RNF181 RING domain (UniProt Q9P0P0); chain VIRGSQAELKCPVCLLEFEEEETAIEMPCHHLFHSSCILPWLSKTNSCPLCRYELPTDDDTY"}
{"target": "UBE2I UBC core domain (UniProt P63279)", "lacZ reporter activity": 0}
{"target": "UBE2E3 UBC core domain (UniProt Q969T4)", "lacZ reporter activity": 8830}
{"target": "UBE2D1 UBC core domain (UniProt P51668)", "lacZ reporter activity": 12300}
{"target": "UBE2M UBC core domain (UniProt P61081)", "lacZ reporter activity": 0}
{"target": "UBE2O UBC core domain (UniProt Q9C0C9)", "lacZ reporter activity": 0}
{"target": "UBE2Z UBC core domain (UniProt Q9H832)", "lacZ reporter activity": 0}
{"data": "Series 2", "target": "Runt-related transcription factor 3, Runt domain (RUNX3, Homo sapiens, UniProt Q13761, residues 53-186)", "technique": "protein-binding microarray", "form": "hairpin DNA", "sample": "in vitro", "concentration": "not given", "setting": "whole hairpin DNA, median over replicate spots", "baseline": "not given", "direction": "higher = stronger binding", "UniProt Q13761, sequence (53-186, looked up)": "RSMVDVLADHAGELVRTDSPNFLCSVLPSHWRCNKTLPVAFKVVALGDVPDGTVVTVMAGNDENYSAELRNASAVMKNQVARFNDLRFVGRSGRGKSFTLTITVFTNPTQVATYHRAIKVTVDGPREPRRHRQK"}
{"Oligonucleotide": "GAGGCCTGTCGCAGTTGGCCTCCTGGCCAACTGCGACAGGCCTCACACTC", "median fluorescence [a.u.]": 4970}
{"Oligonucleotide": "GAGGCCTGGTGCGGTTGGCCTCCTGGCCAACCGCACCAGGCCTCACACTC (5mC at 36)", "median fluorescence [a.u.]": 6290}
{"Oligonucleotide": "GAGGCCTCTCGCGGTTGGCCTCCTGGCCAACCGCGAGAGGCCTCACACTC (5mC at 8)", "median fluorescence [a.u.]": 5800}
{"Oligonucleotide": "GAGGCCGAACCGCAACAGCCTCCTGGCTGTTGCGGTTCGGCCTCACACTC (5mC at 38)", "median fluorescence [a.u.]": 7120}
{"Oligonucleotide": "CTCAGTTCTGCGGGCTGGACTCCTGTCCAGCCCGCAGAACTGAGACACTC (5mC at 11 33)", "median fluorescence [a.u.]": 4130}
{"Oligonucleotide": "GAGGCCTGTTGCGGGTGGCCTCCTGGCCACCCGCAACAGGCCTCACACTC", "median fluorescence [a.u.]": 5410}
{"Oligonucleotide": "GAGGCCTGTTGGGGTTGGCCTCCTGGCCAACCCCAACAGGCCTCACACTC", "median fluorescence [a.u.]": 4890}
{"Oligonucleotide": "GAGGCCTGATGCGGTTGGCCTCCTGGCCAACCGCATCAGGCCTCACACTC", "median fluorescence [a.u.]": 5970}
{"Oligonucleotide": "GAGGCCTGTTGTGGTTAGCCTCCTGGCTAACCACAACAGGCCTCACACTC", "median fluorescence [a.u.]": 6160}
{"Oligonucleotide": "CTCAGTTCTGCGGGCTGGACTCCTGTCCAGCCCGCAGAACTGAGACACTC", "median fluorescence [a.u.]": 4830}
{"Oligonucleotide": "GAGGCCTGTCGCGGTTGCCCTCCTGGGCAACCGCGACAGGCCTCACACTC (5mC at 18)", "median fluorescence [a.u.]": 6110}
{"Oligonucleotide": "GAGGCCTGTTGCGGTCGGCCTCCTGGCCGACCGCAACAGGCCTCACACTC (5mC at 16)", "median fluorescence [a.u.]": 8270}
{"data": "Series 3", "target": "Interferon regulatory factor 5, full length, phosphomimetic (IRF5, Homo sapiens, UniProt Q13568-2, residues 1-514, K96S/S451D/S453D/S456D/S462D)", "technique": "protein-binding microarray", "form": "double-stranded DNA, one strand shown", "sample": "in vitro", "concentration": "250 nM", "setting": "60-bp whole probe", "added": "salmon DNA 0.4 mg/ml", "baseline": "random background probes", "direction": "higher = stronger binding", "constant ends, left off below": "GCCTAGCAC … GTCTTGATTCGCTTGACGCTGCTG"}
{"Oligonucleotide": "GACGGTCTTCTTTTCCTGACGTGCTAG", "log fluorescence [z-score]": 0.311}
{"Oligonucleotide": "TTAGGTTTCGGGACTGGGTAAGTGCTA", "log fluorescence [z-score]": 6.37}
{"Oligonucleotide": "AGATGTATGAGCCTCTGTTTGTGCTAG", "log fluorescence [z-score]": -0.0523}
{"Oligonucleotide": "TCAGATTTCAGTCTCGATTAGTGCTAG", "log fluorescence [z-score]": 2.49}
{"Oligonucleotide": "GACGGTATCAGACTGGGGACGTGCTAG", "log fluorescence [z-score]": 0.017}
{"Oligonucleotide": "TCAGTTCTGGGAAATATTACTGTGCTA", "log fluorescence [z-score]": 0.257}
{"Oligonucleotide": "GACGATATCAGACTGGAGACGTGCTAG", "log fluorescence [z-score]": 0.357}
{"Oligonucleotide": "TTAGGTATGGGTATCGGTTAGTGCTAG", "log fluorescence [z-score]": 3.61}
{"Oligonucleotide": "TTCTTTATGTACTCTCTCCATGTGCTA", "log fluorescence [z-score]": 0.692}
{"Oligonucleotide": "TTAGATGTCAGACTGGATTAGTGCTAG", "log fluorescence [z-score]": -0.00622}
{"Oligonucleotide": "TTAGGGCTGCTTTTCCTTTAGTGCTAG", "log fluorescence [z-score]": -0.0249}
{"data": "Series 4", "target": "Histone acetyltransferase KAT6A, both winged helices, GST fusion (KAT6A, Homo sapiens, UniProt Q92794, residues 1-181)", "technique": "protein binding microarray", "form": "double-stranded DNA, one strand shown", "sample": "in vitro", "concentration": "not given", "setting": "8-mer, flanks averaged, mean of 2 arrays, mostly near background", "baseline": "not given", "direction": "higher = stronger binding", "Residues (chain)": "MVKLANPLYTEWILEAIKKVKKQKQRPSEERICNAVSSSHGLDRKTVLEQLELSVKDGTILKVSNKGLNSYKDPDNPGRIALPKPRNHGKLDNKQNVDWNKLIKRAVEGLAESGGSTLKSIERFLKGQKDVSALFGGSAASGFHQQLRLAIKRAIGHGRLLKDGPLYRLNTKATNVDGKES"}
{"Oligonucleotide": "CTCTTTTC", "E-score": -0.0711}
{"Oligonucleotide": "AAGCACAA", "E-score": -0.201}
{"Oligonucleotide": "GTGAGACA", "E-score": -0.0474}
{"Oligonucleotide": "ACTTCCCG", "E-score": 0.157}
{"Oligonucleotide": "GGGTGTGA", "E-score": 0.0209}
{"Oligonucleotide": "TATATTCA", "E-score": 0.031}
{"Oligonucleotide": "ATCTGCAC", "E-score": -0.0997}
{"Oligonucleotide": "CTGAGAAA", "E-score": -0.103}
{"Oligonucleotide": "ATAGTCAG", "E-score": -0.165}
{"Oligonucleotide": "GAATGGCC", "E-score": -0.0661}
{"Oligonucleotide": "AATTCGGT", "E-score": 0.1}
{"Oligonucleotide": "GGAACAGA", "E-score": -0.073}
{"Oligonucleotide": "TCTCATCA", "E-score": -0.226}
{"Oligonucleotide": "GGTCGGCA", "E-score": 0.164}
{"Oligonucleotide": "TTACCCAA", "E-score": -0.266}
{"Oligonucleotide": "CAGTTCGC", "E-score": 0.184}
{"Oligonucleotide": "GACTGCAA", "E-score": -0.129}
{"Oligonucleotide": "AGAAATGA", "E-score": -0.0401}
{"Oligonucleotide": "AATGCGTG", "E-score": 0.0108}
{"Oligonucleotide": "ACCTACAC", "E-score": -0.248}
{"data": "Series 5", "target": "CCND3, cyclin fold, Cln2 fusion (human)", "technique": "yeast growth competition, sequencing", "sample": "yeast", "setting": "weak parent motif", "baseline": "not given", "direction": "higher = stronger binding", "starting sequence": "E2F1 docking peptide (human); PPVKRRLDFETDH"}
{"Substitution": "PPVKRRLDFNTDH [E10N]", "normalised enrichment score": 0.514}
{"Substitution": "PPVKRRLDTETDH [F9T]", "normalised enrichment score": 0.133}
{"Substitution": "PPVKNRLDFETDH [R5N]", "normalised enrichment score": 0.489}
{"Substitution": "PPVKRRLDFQTDH [E10Q]", "normalised enrichment score": 0.106}
{"Substitution": "PPVKRRLDFGTDH [E10G]", "normalised enrichment score": 0.547}
{"Substitution": "PPVKRCLDFETDH [R6C]", "normalised enrichment score": 0.404}
{"Substitution": "PMVKRRLDFETDH [P2M]", "normalised enrichment score": 0.202}
{"Substitution": "PPVKRRLDFEWDH [T11W]", "normalised enrichment score": 0.535}
{"Substitution": "PPVKRRCDFETDH [L7C]", "normalised enrichment score": 0.312}
{"Substitution": "PPVTRRLDFETDH [K4T]", "normalised enrichment score": 0.0784}
{"Substitution": "PHVKRRLDFETDH [P2H]", "normalised enrichment score": 0.186}
{"Substitution": "PSVKRRLDFETDH [P2S]", "normalised enrichment score": 0.229}
{"Substitution": "PPVKRRNDFETDH [L7N]", "normalised enrichment score": 0.312}
{"Substitution": "PPHKRRLDFETDH [V3H]", "normalised enrichment score": -0.00981}
{"Substitution": "PPVKRRLAFETDH [D8A]", "normalised enrichment score": 0.17}
{"data": "Series 6", "target": "Ras GTPase-activating protein-binding protein 1, full length (G3BP1, Homo sapiens, UniProt Q13283)", "technique": "RNA Bind-n-Seq", "form": "RNA", "sample": "in vitro", "concentration": "200 nM", "setting": "whole 134-nt RNA, ends assumed", "added": "150 mM LiCl", "baseline": "input library", "direction": "higher = stronger binding", "library": "7-deaza-guanosine replaces G", "constant ends, left off below": "GGGAGUUCUACAGUCCGACGAUC … UGGAAUUCUCGGGUGUCAAGG", "UniProt Q13283, sequence (whole entry, looked up)": "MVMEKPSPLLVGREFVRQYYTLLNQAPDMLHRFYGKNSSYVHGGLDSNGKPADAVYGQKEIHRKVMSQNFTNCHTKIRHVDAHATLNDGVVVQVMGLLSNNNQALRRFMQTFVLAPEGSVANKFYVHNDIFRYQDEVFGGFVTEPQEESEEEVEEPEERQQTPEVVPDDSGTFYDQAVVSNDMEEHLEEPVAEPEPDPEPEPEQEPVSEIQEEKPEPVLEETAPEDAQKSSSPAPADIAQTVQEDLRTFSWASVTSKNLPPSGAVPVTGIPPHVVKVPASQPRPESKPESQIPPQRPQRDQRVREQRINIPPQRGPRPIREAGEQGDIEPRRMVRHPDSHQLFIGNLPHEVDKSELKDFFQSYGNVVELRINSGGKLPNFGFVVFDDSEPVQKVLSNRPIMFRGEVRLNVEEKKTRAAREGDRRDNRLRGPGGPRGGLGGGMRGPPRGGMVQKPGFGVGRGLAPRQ"}
{"Oligonucleotide": "CAAGUCCUGUGCUACACAUCGUAUGUACCGAAUCGGGAGGGUGGGAAAAAAAGGGAAAGUAUUAUGUUACGCCGUUCGGAUCUGCACUUC", "log2 enrichment": 0.169}
{"Oligonucleotide": "AAGUCCUGUGCUACACAUCGUAUGUACCGAAUCGGUUUUUUUGGUUUUUGGAAAGGAAAGUAUUAUGUUACGCCGUUCGGAUCUGCACUU", "log2 enrichment": -0.925}
{"Oligonucleotide": "GCAGGAAGUAAAAUCAAAUGGAAAUGCUUCGGAUAGUGGCAGGGGUGGGGGUUGCUAAGGAAAGGGUGGGAUGGGAGUGGGUAAAGAGUU", "log2 enrichment": -0.174}
{"Oligonucleotide": "GCAGGAAGUAAAAACAAAUGGAAAUGGUUCGGAUAGUGGCAGGGGUGGGGGUUGCUAAGGAAAGGGUGGGAUGGGAGUGGGUAAAGAGUU", "log2 enrichment": -0.711}
{"Oligonucleotide": "UUCCUCAAGUCCUGUGCUACACAUCGUAUGUACCGAAUCGGGUGGUGGUGGAAAGUAUUAUGUUACGCCGUUCGGAUCUGCACUUCCAGC", "log2 enrichment": 0.0653}
{"Oligonucleotide": "GUCCUGUGCUACACAUCGUAUGUACCGAAUCGGGAAAGGGUUUUUGGGAAAAAAAGGGAAAGUAUUAUGUUACGCCGUUCGGAUCUGCAC", "log2 enrichment": -0.652}
{"Oligonucleotide": "CCUGUGCUACACAUCGUAUGUACCGAAUCGGGUUUUUUUGGGUUUUUUUGGUUUUUUUGGGAAAGUAUUAUGUUACGCCGUUCGGAUCUG", "log2 enrichment": 0.72}
{"Oligonucleotide": "UCCUGUGCUACACAUCGUAUGUACCGAAUCGGGGCCCCCGGGCCCCCGGGCCCCCGGGGAAAGUAUUAUGUUACGCCGUUCGGAUCUGCA", "log2 enrichment": -1.36}
{"Oligonucleotide": "ACCAUGCAGGUGGGCAUCUUUGGGAAGUGGGGCAAGGGGGGGAUAGGGAGGGGGGUAACACUUUGGGAGCAGGUGGUCCCAGGUCGUUUC", "log2 enrichment": 0.0812}
{"Oligonucleotide": "CCUGUGCUACACAUCGUAUGUACCGAAUCGGCCCCCCGGGGCCCCCCGGGGCCCCCCGGGAAAGUAUUAUGUUACGCCGUUCGGAUCUGC", "log2 enrichment": -2.68}
{"Oligonucleotide": "GUCCUGUGCUACACAUCGUAUGUACCGAAUCGGGCCCCCCGGGCCCCCCGGCCCCCCGGAAAGUAUUAUGUUACGCCGUUCGGAUCUGCA", "log2 enrichment": -0.35}
{"note": "Excerpt of the above (series 3):"}
{"Oligonucleotide": "TCAGTTCTGGGAAATATTACTGTGCTA", "log fluorescence [z-score]": 0.257}
{"Oligonucleotide": "AGATGTATGAGCCTCTGTTTGTGCTAG", "log fluorescence [z-score]": -0.0523}
{"Oligonucleotide": "TTAGGTTTCGGGACTGGGTAAGTGCTA", "log fluorescence [z-score]": 6.37}
{"Oligonucleotide": "TTAGGGCTGCTTTTCCTTTAGTGCTAG", "log fluorescence [z-score]": -0.0249}
{"Oligonucleotide": "TTAGGTATGGGTATCGGTTAGTGCTAG", "log fluorescence [z-score]": 3.61}
{"Oligonucleotide": "GACGGTATCAGACTGGGGACGTGCTAG", "log fluorescence [z-score]": 0.017}
{"Oligonucleotide": "TTCTTTATGTACTCTCTCCATGTGCTA", "log fluorescence [z-score]": 0.692}
{"Oligonucleotide": "TCAGATTTCAGTCTCGATTAGTGCTAG", "log fluorescence [z-score]": 2.49}
{"Oligonucleotide": "GACGATATCAGACTGGAGACGTGCTAG", "log fluorescence [z-score]": 0.357}
{"Oligonucleotide": "TTAGATGTCAGACTGGATTAGTGCTAG", "log fluorescence [z-score]": -0.00622}
{"Oligonucleotide": "GACGGTCTTCTTTTCCTGACGTGCTAG", "log fluorescence [z-score]": 0.311}
